Experimental data collected from several papers.
Parts stem from different laboratories: compare values within a part only. Substitutions count along the parent as printed.
UniProt Q9BYP7, sequence (whole entry, looked up): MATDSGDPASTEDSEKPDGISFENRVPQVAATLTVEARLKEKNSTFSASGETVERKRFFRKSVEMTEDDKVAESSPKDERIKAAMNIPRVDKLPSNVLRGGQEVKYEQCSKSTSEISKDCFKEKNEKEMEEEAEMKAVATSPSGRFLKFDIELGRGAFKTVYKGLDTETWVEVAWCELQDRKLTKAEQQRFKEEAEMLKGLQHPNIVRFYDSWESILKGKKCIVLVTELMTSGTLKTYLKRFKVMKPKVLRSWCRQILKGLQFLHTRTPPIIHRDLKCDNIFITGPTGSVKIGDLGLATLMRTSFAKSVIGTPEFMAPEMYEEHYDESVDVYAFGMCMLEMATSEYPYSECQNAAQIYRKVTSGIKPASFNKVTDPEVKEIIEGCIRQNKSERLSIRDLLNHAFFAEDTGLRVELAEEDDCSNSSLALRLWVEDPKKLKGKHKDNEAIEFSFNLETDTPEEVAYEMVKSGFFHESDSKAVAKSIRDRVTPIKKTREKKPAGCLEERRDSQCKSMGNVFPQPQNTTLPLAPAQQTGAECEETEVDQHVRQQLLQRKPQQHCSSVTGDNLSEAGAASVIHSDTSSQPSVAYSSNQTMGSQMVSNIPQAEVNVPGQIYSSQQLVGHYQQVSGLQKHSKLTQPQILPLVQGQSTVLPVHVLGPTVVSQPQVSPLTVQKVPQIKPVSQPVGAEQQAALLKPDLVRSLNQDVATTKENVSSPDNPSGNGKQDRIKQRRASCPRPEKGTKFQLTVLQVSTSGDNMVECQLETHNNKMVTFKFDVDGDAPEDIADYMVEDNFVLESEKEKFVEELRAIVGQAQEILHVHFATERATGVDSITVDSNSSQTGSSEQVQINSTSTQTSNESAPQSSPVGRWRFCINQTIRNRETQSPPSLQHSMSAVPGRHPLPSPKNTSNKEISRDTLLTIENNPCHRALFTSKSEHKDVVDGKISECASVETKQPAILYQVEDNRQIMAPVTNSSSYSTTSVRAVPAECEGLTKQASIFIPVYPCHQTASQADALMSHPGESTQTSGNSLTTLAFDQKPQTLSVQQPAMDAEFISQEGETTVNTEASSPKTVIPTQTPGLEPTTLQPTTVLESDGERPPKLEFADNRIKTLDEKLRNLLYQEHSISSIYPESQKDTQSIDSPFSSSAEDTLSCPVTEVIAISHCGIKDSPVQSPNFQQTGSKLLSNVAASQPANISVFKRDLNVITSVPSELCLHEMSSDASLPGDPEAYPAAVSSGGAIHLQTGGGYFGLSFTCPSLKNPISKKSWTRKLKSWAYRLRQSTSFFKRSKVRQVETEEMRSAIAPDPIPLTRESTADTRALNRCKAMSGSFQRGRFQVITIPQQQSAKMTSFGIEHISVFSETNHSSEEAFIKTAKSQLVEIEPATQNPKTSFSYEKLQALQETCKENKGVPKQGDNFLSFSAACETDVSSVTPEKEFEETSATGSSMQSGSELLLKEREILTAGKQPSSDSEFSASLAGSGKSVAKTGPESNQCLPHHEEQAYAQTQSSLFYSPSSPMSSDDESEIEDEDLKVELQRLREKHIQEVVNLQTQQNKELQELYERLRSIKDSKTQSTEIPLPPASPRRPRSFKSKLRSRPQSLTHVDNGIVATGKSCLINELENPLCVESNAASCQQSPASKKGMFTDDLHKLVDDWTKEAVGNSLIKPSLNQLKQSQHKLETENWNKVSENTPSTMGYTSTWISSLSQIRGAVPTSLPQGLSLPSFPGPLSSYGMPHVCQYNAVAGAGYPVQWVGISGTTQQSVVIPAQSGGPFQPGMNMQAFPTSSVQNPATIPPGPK

Sample 1 — method: universal PBM; form: double-stranded DNA, one strand shown; matrix: in vitro; tested at: not given; reading: higher = stronger binding
Target: Sal-like protein 4, full length isoform B (SALL4, Homo sapiens, UniProt Q9UJQ4-2, residues 1-616)
Setting: 8-mer, flanks averaged, mean of replicates
Target sequence (chain): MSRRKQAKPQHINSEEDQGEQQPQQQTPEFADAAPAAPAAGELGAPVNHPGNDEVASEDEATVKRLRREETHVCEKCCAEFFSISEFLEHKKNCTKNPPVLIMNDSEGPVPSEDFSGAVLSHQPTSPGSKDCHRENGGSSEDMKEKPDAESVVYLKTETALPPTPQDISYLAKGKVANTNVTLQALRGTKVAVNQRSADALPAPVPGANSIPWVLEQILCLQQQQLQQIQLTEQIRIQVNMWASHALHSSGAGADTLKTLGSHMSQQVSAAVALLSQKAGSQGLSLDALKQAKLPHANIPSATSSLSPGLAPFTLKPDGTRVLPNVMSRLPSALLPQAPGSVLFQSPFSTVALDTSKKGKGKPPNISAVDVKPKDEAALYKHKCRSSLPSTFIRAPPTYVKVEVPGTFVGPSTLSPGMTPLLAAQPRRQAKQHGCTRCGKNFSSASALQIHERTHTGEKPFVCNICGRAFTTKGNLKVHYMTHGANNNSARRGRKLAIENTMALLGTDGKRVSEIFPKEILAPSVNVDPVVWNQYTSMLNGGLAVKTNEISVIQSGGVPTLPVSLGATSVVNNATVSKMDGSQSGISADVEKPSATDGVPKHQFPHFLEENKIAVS
For `AAACGAAC`, the E-score was 0.138.
`AGACCCCC` gave an E-score of -0.314.
The E-score of `GCCAGGCA` is reported as -0.233.
`CGCCGACC` has an E-score of -0.328.
`AGTACTAT` gave an E-score of 0.111.
With `AGTGGCCA` the E-score was -0.106.
`CACGAGCA` gave an E-score of -0.181.
With `GAAGATCA` the E-score was 0.0696.

Sample 2 — method: protein-binding microarray; form: double-stranded DNA, one strand shown; matrix: in vitro; tested at: 940 nM top; setting: 60-bp whole probe; with: salmon DNA 0.4 mg/ml; baseline: random background probes; reading: higher = stronger binding; constant ends, left off below: GCCTAGCAC … GTCTTGATTCGCTTGACGCTGCTG
Target: Interferon regulatory factor 5, full length, phosphomimetic (IRF5, Homo sapiens, UniProt Q13568-2, residues 1-514, S451D/S453D/S456D/S462D)
`TCAGGTCTGTTTCTGATACTGTGCTAG`: “fitted relative affinity” 0.624 z-score.
`GACGATTTCAGTATCGTGACGTGCTAG` — result for “fitted relative affinity”: 1.03 z-score.
`GACGGTATCGGTTTCGGAACGTGCTAG`: “fitted relative affinity” 11.2 z-score.
`GACGAACAGGGGTATCGAGACGTGCTA` — result for “fitted relative affinity”: 0.68 z-score.
`ATGTTTTGAGTTTTCCTTCAGTGCTAG` — result for “fitted relative affinity”: 0.838 z-score.
`TTACGACTGCTTCTCCTTTAGTGCTAG`: “fitted relative affinity” 0.829 z-score.
For `ATTATGTTTGCTTTGTTCTGGTGCTAG`, “fitted relative affinity” read 0.0273 z-score.
For `TGTTGGTAATTTTGCTATTTGTGCTAG`, “fitted relative affinity” read -0.135 z-score.

Sample 3 — target: FOSL2, bZIP domain (human); method: DHFR protein complementation; matrix: yeast; baseline: wild-type JUN-FOS pair; reading: higher = stronger binding
Setting: single substitutions, most at no-binding floor
Starting sequence: JUN, bZIP domain (human); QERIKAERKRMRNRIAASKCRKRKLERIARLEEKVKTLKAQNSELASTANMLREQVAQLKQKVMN; partner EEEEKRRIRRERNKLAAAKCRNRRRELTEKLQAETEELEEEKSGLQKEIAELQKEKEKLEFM
With `A46N` the binding fitness was 0.053 natural log.
With `L45T` the binding fitness was -1.24 natural log.
`Q55L` has a binding fitness of -0.0691 natural log.
With `R30S` the binding fitness was 0.203 natural log.
With `N42C` the binding fitness was 0.154 natural log.
With `V56M` the binding fitness was -0.38 natural log.
The binding fitness of `Q55D` is reported as -0.2 natural log.
For `L31G`, the binding fitness was -0.737 natural log.

Other studies, line by line
With `CN(C)S(=O)(=O)c1ccc2c(c1)/C(=C/c1cc3c([nH]1)CCCC3)C(=O)N2` the remaining activity was 96.5% (Serine/threonine-protein kinase WNK3 (WNK3, Homo sapiens, UniProt Q9BYP7); enzyme activity, inhibitor; 0.5 µM; baseline: control).

For quick reference, copied from above (sample 1):
`CGCCGACC` has an E-score of -0.328.
`AGTACTAT` gave an E-score of 0.111.
With `AGTGGCCA` the E-score was -0.106.
`CACGAGCA` gave an E-score of -0.181.
